Assay results of several laboratories.
Each line is one published result; not all experiments were run side by side. ± marks the error that the study gave.

Compound | assay | test system | conditions | scale | quantity | result
CC[C@H](C)[C@H](NC(=O)[C@H](CCN)NC(=O)CCCCCCCCCCCNC(=O)CCCCCOC(=O)c1cn(C2CC2)c2cc(N3CCNCC3)c(F)cc2c1=O)C(=O)N[C@@H](CCN)C(=O)N[C@H](Cc1ccccc1)C(=O)N[C@@H](CC(C)C)C(=O)N[C@@H](CCN)C(=O)N[C@@H](C(=O)N[C@@H](CC(C)C)C(=O)N[C@@H](CO)C(N)=O)C(C)C | light transmittance | PBS | pH 7.4 |  | critical micelle concentration | 195 µM
CCCC[C@H](NC(=O)CCCCCCCNC(=O)CN1CCN(CC(=O)O)CCN(CC(=O)O)CC1)C(=O)N[C@H]1CC(=O)NCCCC[C@@H](C(N)=O)NC(=O)[C@H](Cc2c[nH]c3ccccc23)NC(=O)[C@H](CCCNC(=N)N)NC(=O)[C@@H](Cc2ccccc2)NC(=O)[C@H](Cc2c[nH]cn2)NC1=O [copper-64 labelled] |  | C57 mice, pancreas | intravenous, 0.37 MBq, 24 h |  | tissue uptake | 0.02 ± 0.04 %ID/g
CCCC[C@H](NC(=O)CNC(=O)CNC(=O)CN1CCN(CC(=O)O)CCN(CC(=O)O)CC1)C(=O)N[C@H]1CC(=O)NCCCC[C@@H](C(N)=O)NC(=O)[C@H](Cc2c[nH]c3ccccc23)NC(=O)[C@H](CCCNC(=N)N)NC(=O)[C@@H](Cc2ccccc2)NC(=O)[C@H](Cc2c[nH]cn2)NC1=O [technetium-99m labelled] |  | C57 mouse, liver | iv, 0.037 MBq, 24 h |  | tissue uptake | 0.53 ± 0.17 %ID/g
CC(C)C[C@H](NC(=O)[C@H](Cc1ccc(O)cc1)NC(=O)[C@@H](CCCNC(=N)N)NC(=O)[C@@H](CO)NC(=O)[C@H](Cc1ccccc1)NC(=O)[C@H](CC1CCCCC1)NC(=O)[C@H](CC(=O)O)NC(=O)CN1CCN(CC(=O)O)CCN(CC(=O)O)CCN(CC(=O)O)CC1)C(=O)N[C@@H](Cc1c[nH]c2ccccc12)C(=O)N[C@@H](CO)C(=O)O [copper-64 labelled] |  | human cancer patients, urine | iv, dose not given, 0-1 h |  | activity excreted in urine | > 40 MBq
CCCC[C@H](NC(=O)COCCOCCNC(=O)CN1CCN(CC(=O)O)CCN(CC(=O)O)CC1)C(=O)N[C@H]1CC(=O)NCCCC[C@@H](C(N)=O)NC(=O)[C@H](Cc2c[nH]c3ccccc23)NC(=O)[C@H](CCCNC(=N)N)NC(=O)[C@@H](Cc2ccccc2)NC(=O)[C@H](Cc2c[nH]cn2)NC1=O [copper-64 labelled] |  | C57 mice, brain | intravenous, 0.37 MBq, 24 h |  | tissue uptake | 0.04 ± 0.03 %ID/g
CC(C)C[C@H](NC(=O)[C@H](Cc1ccc(O)cc1)NC(=O)[C@@H](CCCNC(=N)N)NC(=O)[C@@H](CO)NC(=O)[C@H](Cc1ccccc1)NC(=O)[C@H](CC1CCCCC1)NC(=O)[C@H](CC(=O)O)NC(=O)CN1CCCN2CCN(CCCN(CC(=O)O)CC2)CC1)C(=O)N[C@@H](Cc1c[nH]c2ccccc12)C(=O)N[C@@H](CO)C(=O)O [copper-64 labelled] |  | female NMRI nude mice, stomach | 1 h p.i. |  | tissue uptake | 1.7 ± 0.6 %ID/g
N=C(N)NCCC[C@@H]1NC(=O)[C@H](CCCCNC(=O)CC[C@H](NC(=O)CC[C@H](NC(=O)CN2CCN(CC(=O)O)CCN(CC(=O)O)CCN(CC(=O)O)CC2)C(=O)N[C@@H](CCC(=O)NCCCC[C@@H]2NC(=O)[C@@H](Cc3ccccc3)NC(=O)[C@H](CC(=O)O)NC(=O)CNC(=O)[C@H](CCCNC(=N)N)NC2=O)C(=O)NCCCC[C@@H]2NC(=O)[C@@H](Cc3ccccc3)NC(=O)[C@H](CC(=O)O)NC(=O)CNC(=O)[C@H](CCCNC(=N)N)NC2=O)C(=O)NCCCC[C@@H]2NC(=O)[C@@H](Cc3ccccc3)NC(=O)[C@H](CC(=O)O)NC(=O)CNC(=O)[C@H](CCCNC(=N)N)NC2=O)NC(=O)[C@@H](Cc2ccccc2)NC(=O)[C@H](CC(=O)O)NC(=O)CNC1=O [indium-111 labelled] |  | female athymic nu/nu mice, liver | intravenous, 72 h |  | tissue uptake | 1.62 ± 0.4 %ID/g
Cc1cc(-c2ccc(NC(=O)[C@H](CCCCNC(=O)CCN3C(=O)CC(SCCC(=O)N[C@H](Cc4ccccc4)C(=O)N[C@H]4CSSC[C@@H](C(=O)N[C@H](C(=O)O)[C@@H](C)O)NC(=O)[C@H]([C@@H](C)O)NC(=O)[C@H](CCCCN)NC(=O)[C@@H](Cc5c[nH]c6ccccc56)NC(=O)[C@H](Cc5ccc(O)cc5)NC4=O)C3=O)NC(=O)CN3CCN(CC(=O)O)CCN(CC(=O)O)CCN(CC(=O)O)CC3)c(C)c2)ccc1N=Nc1ccc2c(S(=O)(=O)O)cc(S(=O)(=O)O)c(N)c2c1O (some centres unmarked) [lutetium-177 labelled] |  | metastatic NET patients, lymph node metastases |  |  | absorbed dose | 0.62 ± 0.06 Gy/GBq
COc1ccc2cc([C@H](C)C(=O)NCCCC[C@@H](NC(=O)[C@@H](Cc3ccccc3)NC(=O)[C@H](N)Cc3ccccc3)C(=O)N[C@H](Cc3ccc(O)cc3)C(=O)O)ccc2c1 | oscillatory rheology | hydrogel 0.8 wt% |  |  | critical strain | 0.4%
N=C(N)NCCC[C@@H]1NC(=O)[C@H](CCCCNC(=O)CNC(=O)CNC(=O)CNC(=O)CC[C@H](NC(=O)CNC(=O)CNC(=O)CNC(=O)CC[C@H](NC(=O)CN2CCN(CC(=O)O)CCN(CC(=O)O)CCN(CC(=O)O)CC2)C(=O)NCC(=O)NCC(=O)NCC(=O)N[C@@H](CCC(=O)NCC(=O)NCC(=O)NCC(=O)NCCCC[C@@H]2NC(=O)[C@@H](Cc3ccccc3)NC(=O)[C@H](CC(=O)O)NC(=O)CNC(=O)[C@H](CCCNC(=N)N)NC2=O)C(=O)NCC(=O)NCC(=O)NCC(=O)NCCCC[C@@H]2NC(=O)[C@@H](Cc3ccccc3)NC(=O)[C@H](CC(=O)O)NC(=O)CNC(=O)[C@H](CCCNC(=N)N)NC2=O)C(=O)NCC(=O)NCC(=O)NCC(=O)NCCCC[C@@H]2NC(=O)[C@@H](Cc3ccccc3)NC(=O)[C@H](CC(=O)O)NC(=O)CNC(=O)[C@H](CCCNC(=N)N)NC2=O)NC(=O)[C@@H](Cc2ccccc2)NC(=O)[C@H](CC(=O)O)NC(=O)CNC1=O [indium-111 labelled] |  | female athymic nu/nu mice, bone | intravenous, 1 h |  | tissue uptake | 2.35 ± 0.64 %ID/g
CCCCCCCC/C=C\CCCCCCCC(=O)OC[C@H](NC(=O)[C@H](Cc1c[nH]c2ccccc12)NC(=O)[C@H](Cc1c[nH]cn1)NC(=O)[C@@H]1CCC(=O)N1)C(=O)N[C@@H](Cc1ccc(O)cc1)C(=O)N[C@H](CC(C)C)C(=O)N[C@@H](CC(C)C)C(=O)N[C@@H](CCCNC(=N)N)C(=O)N1CCC[C@H]1C(=O)NCC |  | human plasma | 1 mg/mL, 37 °C |  | time to 50% degradation | ≤ 1.5 days
Cc1cc(-c2ccc(NC(=O)[C@H](CCCCNC(=O)CCOCCOCCC(=O)N[C@H](Cc3ccccc3)C(=O)N[C@H]3CSSC[C@@H](C(=O)N[C@H](C(=O)O)[C@@H](C)O)NC(=O)[C@H]([C@@H](C)O)NC(=O)[C@H](CCCCN)NC(=O)[C@@H](Cc4c[nH]c5ccccc45)NC(=O)[C@H](Cc4ccc(O)cc4)NC3=O)NC(=O)CN3CCN(CC(=O)O)CCN(CC(=O)O)CCN(CC(=O)O)CC3)c(C)c2)ccc1N=Nc1ccc2c(S(=O)(=O)O)cc(S(=O)(=O)O)c(N)c2c1O [lutetium-177 labelled] |  | patients with metastatic NETs, lymph node metastases |  | relative to: cpd over 177Lu-EB-TATE | absorbed dose ratio | 2.7 fold
N=C(N)NCCC[C@@H]1NC(=O)[C@H](CCCCNC(=O)CNC(=O)CNC(=O)CNC(=O)CC[C@H](NC(=O)CNC(=O)CNC(=O)CNC(=O)CN2CCN(CC(=O)O)CCN(CC(=O)O)CCN(CC(=O)O)CC2)C(=O)NCC(=O)NCC(=O)NCC(=O)NCCCC[C@@H]2NC(=O)[C@@H](Cc3ccccc3)NC(=O)[C@H](CC(=O)O)NC(=O)CNC(=O)[C@H](CCCNC(=N)N)NC2=O)NC(=O)[C@@H](Cc2ccccc2)NC(=O)[C@H](CC(=O)O)NC(=O)CNC1=O [indium-111 labelled] |  | female athymic nu/nu mice, heart | intravenous, 4 h |  | tissue uptake | 0.44 ± 0.02 %ID/g
CCCC[C@H](NC(=O)CNC(=O)CNC(=O)CN1CCN(CC(=O)O)CCN(CC(=O)O)CCN(CC(=O)O)CC1)C(=O)N[C@H]1CC(=O)NCCCC[C@@H](C(N)=O)NC(=O)[C@H](Cc2c[nH]c3ccccc23)NC(=O)[C@H](CCCNC(=N)N)NC(=O)[C@@H](Cc2ccccc2)NC(=O)[C@H](Cc2c[nH]cn2)NC1=O [lutetium-177 labelled] |  | C57 mouse, female, whole blood | intravenous, 0.037 MBq, 4 h |  | tissue uptake | 0.15 ± 0.07 %ID/g

Excerpt of the above:
Compound | assay | test system | conditions | scale | quantity | result
Cc1cc(-c2ccc(NC(=O)[C@H](CCCCNC(=O)CCN3C(=O)CC(SCCC(=O)N[C@H](Cc4ccccc4)C(=O)N[C@H]4CSSC[C@@H](C(=O)N[C@H](C(=O)O)[C@@H](C)O)NC(=O)[C@H]([C@@H](C)O)NC(=O)[C@H](CCCCN)NC(=O)[C@@H](Cc5c[nH]c6ccccc56)NC(=O)[C@H](Cc5ccc(O)cc5)NC4=O)C3=O)NC(=O)CN3CCN(CC(=O)O)CCN(CC(=O)O)CCN(CC(=O)O)CC3)c(C)c2)ccc1N=Nc1ccc2c(S(=O)(=O)O)cc(S(=O)(=O)O)c(N)c2c1O (some centres unmarked) [lutetium-177 labelled] |  | metastatic NET patients, lymph node metastases |  |  | absorbed dose | 0.62 ± 0.06 Gy/GBq
N=C(N)NCCC[C@@H]1NC(=O)[C@H](CCCCNC(=O)CNC(=O)CNC(=O)CNC(=O)CC[C@H](NC(=O)CNC(=O)CNC(=O)CNC(=O)CN2CCN(CC(=O)O)CCN(CC(=O)O)CCN(CC(=O)O)CC2)C(=O)NCC(=O)NCC(=O)NCC(=O)NCCCC[C@@H]2NC(=O)[C@@H](Cc3ccccc3)NC(=O)[C@H](CC(=O)O)NC(=O)CNC(=O)[C@H](CCCNC(=N)N)NC2=O)NC(=O)[C@@H](Cc2ccccc2)NC(=O)[C@H](CC(=O)O)NC(=O)CNC1=O [indium-111 labelled] |  | female athymic nu/nu mice, heart | intravenous, 4 h |  | tissue uptake | 0.44 ± 0.02 %ID/g
